{"data": "Results pooled from the literature", "note": "Numbered parts are unrelated; each lists some results of a single study. Changes are numbered by the printed parent chain."}
{"data": "Block 1", "target": "Sal-like protein 4, full length isoform B (SALL4, Homo sapiens, UniProt Q9UJQ4-2, residues 1-616)", "method": "universal PBM", "molecule type": "double-stranded DNA, one strand shown", "matrix": "in vitro", "tested at": "not given", "setting": "8-mer, flanks averaged, mean of replicates", "reading": "higher = stronger binding"}
{"Strand": "GAGTTAGC", "E-score": -0.0661}
{"Strand": "AAAAGGCT", "E-score": -0.121}
{"Strand": "CCTCTAGA", "E-score": -0.0818}
{"Strand": "CTTACTCC", "E-score": 0.0356}
{"Strand": "CGTTCTTA", "E-score": -0.0141}
{"Strand": "TAAGTACA", "E-score": 0.281}
{"Strand": "CCTGCCAG", "E-score": -0.205}
{"data": "Block 2", "target": "RING finger protein unkempt homolog, zinc fingers 1-6, GST-SBP tag (UNK, Homo sapiens, UniProt Q9C0B0, residues 30-357)", "method": "RNA Bind-n-Seq", "molecule type": "RNA", "matrix": "in vitro", "tested at": "not given", "setting": "RNA with constant flanks, human and mouse sites, ends assumed", "reference": "input RNA pool", "reading": "higher = stronger binding", "sequence of UniProt Q9C0B0 (30-357, looked up)": "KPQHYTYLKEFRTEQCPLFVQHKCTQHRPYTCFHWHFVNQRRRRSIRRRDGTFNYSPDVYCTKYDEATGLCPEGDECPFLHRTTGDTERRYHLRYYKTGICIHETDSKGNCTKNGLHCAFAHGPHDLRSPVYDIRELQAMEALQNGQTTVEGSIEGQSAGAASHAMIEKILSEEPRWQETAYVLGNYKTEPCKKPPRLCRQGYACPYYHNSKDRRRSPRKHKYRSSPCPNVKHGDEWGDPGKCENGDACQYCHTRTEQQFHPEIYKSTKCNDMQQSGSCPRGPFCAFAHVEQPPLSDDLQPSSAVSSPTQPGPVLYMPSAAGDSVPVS"}
{"Strand": "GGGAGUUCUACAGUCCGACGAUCUACUAGAUAUUAAAAACUACAUAUAGUUAAUAUAAUUUUAUAAUUUUUGUAAUUAAAUGUGCUCCUGUAAUUGUGAUAUUUUGUUUUCUAAGUAAUUAAGCCUUAAUUUUUCCCCUAUGUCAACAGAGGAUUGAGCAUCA", "bound/input enrichment [ratio]": 74.3}
{"Strand": "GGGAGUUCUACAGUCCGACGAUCUUCAUUCUGCUAUUCCAGAGACUUCAGAAUUCCAAAACAACCAAGUUUAUCAAGAGUUUUUUAGUCUUUAUUAAUUUGUAUUGCAUAAAAUAUGGGGCACUAGCACUACAAGAAAUAUUUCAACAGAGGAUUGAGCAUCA", "bound/input enrichment [ratio]": 7.02}
{"Strand": "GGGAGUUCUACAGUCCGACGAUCAGGAUGGCACAACUUCUGGAUCUCUCUGUGGAUGAGUCAGAGGCUUUCCUCUCGAAUCUAGUCGUUAACAAGACCAUCUUUGCUAAAGUAGACAGGUUGGCUGGAGUCAUCAACUUCCAGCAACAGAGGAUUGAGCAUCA", "bound/input enrichment [ratio]": 0.154}
{"Strand": "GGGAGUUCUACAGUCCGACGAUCGAUCAGAAUGGAAUGACCCCUUUAAUGUGGGCAGCUUAUAGAACACAUAGUGUGGAUCCAACUAGAUUGCUUUUAACAUUCAAUGUUUCAGUUAACCUUGGUGACAAGUAUCACAAAAACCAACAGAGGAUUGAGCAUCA", "bound/input enrichment [ratio]": 0.317}
{"Strand": "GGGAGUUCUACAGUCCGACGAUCAAUUCAUAAUCACGCUAAUUGUAAUCUGGAGACGUGUAACAUUGUGUAGCCUUUUGUAUAAAUAGACAGAUAGAAAUGGUCCGAUUAGUUUCCUUUUUAAUAUGCUUAAAAUAAGCAGGUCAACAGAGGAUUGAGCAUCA", "bound/input enrichment [ratio]": 6.72}
{"Strand": "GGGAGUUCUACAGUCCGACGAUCUACAGCUUGCCUUUUUAAUGUUAGUCACAAUGUUUUUGUGGUUUGAAGUUUAGUUUAAUGUUAGUGCAGUGACAGGAAAUACACAUUAUGCUGAUGUUGAUGACAGAAUUUAUUUGGUUGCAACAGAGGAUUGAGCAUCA", "bound/input enrichment [ratio]": 1.52}
{"Strand": "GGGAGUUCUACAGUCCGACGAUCUGGAAUUCAAAUUUGAGUGGACAUCUCCUAAGUGCAUCUGAUGACCAUACUGUUUGUCUGUGGGAUAUAAACGCAGGACCAAAAGAAGGCAAAAUUGUGGAUGCUAAAGCCAUCUUUACUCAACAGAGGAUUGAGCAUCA", "bound/input enrichment [ratio]": 0.245}
{"Strand": "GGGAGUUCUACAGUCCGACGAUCUGAAAAUGGCUUCUGCUCCAUUAAAAAGUAAAAAUUGUCCUCCAAAUAUAAAACUCCUUAAUAGAUAUUUUUGAAAUUAAAAUCUUUAAAUUUUAUAAAUCAGCUGUUGCCACUACACAACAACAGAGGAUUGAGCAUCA", "bound/input enrichment [ratio]": 92}
{"data": "Block 3", "target": "CCNB2, cyclin fold, Cln2 fusion (human)", "method": "yeast growth competition, sequencing", "matrix": "yeast", "setting": "weak parent motif", "reference": "not given", "reading": "higher = stronger binding", "parent": "SCAPER docking peptide (human); SNARRSLNFGGST"}
{"Change": "N8D", "normalised enrichment score": -0.104}
{"Change": "S1M", "normalised enrichment score": 0.316}
{"Change": "S12F", "normalised enrichment score": 0.249}
{"Change": "R5K", "normalised enrichment score": 0.112}
{"data": "Other studies, line by line"}
{"Molecule": "PhoQ, residues 284 288 289 292 302 303 TTSMTC", "target": "PhoP, residues 12 14 15 18 19 QQAYL (Escherichia coli, UniProt P23836)", "assay": "Sort-seq, refers to: YFP reporter", "test system": "E. coli", "setting": "PhoQ-PhoP variant library, added: 10 µM Mg2+", "scale": "reference: high Mg2+ state, higher = stronger signaling", "endpoint": "fold induction", "value": 5.47}
{"note": "For quick reference, copied from above (block 1):"}
{"Strand": "GAGTTAGC", "E-score": -0.0661}
{"Strand": "AAAAGGCT", "E-score": -0.121}
